Published values gathered from unrelated publications.
Compare with care: the assays were run in different laboratories. ± gives the spread as reported. Converted amounts (≈) assume the structure as drawn.
Chain of UniProt Q05513 (whole entry, looked up): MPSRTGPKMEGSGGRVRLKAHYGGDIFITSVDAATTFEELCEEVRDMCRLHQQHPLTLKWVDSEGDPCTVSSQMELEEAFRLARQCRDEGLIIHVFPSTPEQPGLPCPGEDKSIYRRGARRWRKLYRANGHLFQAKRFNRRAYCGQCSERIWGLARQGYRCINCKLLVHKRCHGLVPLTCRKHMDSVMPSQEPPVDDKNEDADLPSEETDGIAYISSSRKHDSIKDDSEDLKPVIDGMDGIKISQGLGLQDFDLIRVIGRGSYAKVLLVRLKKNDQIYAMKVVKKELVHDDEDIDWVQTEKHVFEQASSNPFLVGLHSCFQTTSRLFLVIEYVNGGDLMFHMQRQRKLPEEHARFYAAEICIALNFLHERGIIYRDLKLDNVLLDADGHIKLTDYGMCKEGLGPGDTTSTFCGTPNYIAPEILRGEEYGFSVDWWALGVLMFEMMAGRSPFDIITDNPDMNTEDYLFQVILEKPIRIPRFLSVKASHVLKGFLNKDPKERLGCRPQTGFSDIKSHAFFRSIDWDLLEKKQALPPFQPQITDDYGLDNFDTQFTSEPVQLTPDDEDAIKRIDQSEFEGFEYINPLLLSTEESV

Compound	tested on	test	test system	setting	how to read	measurement	result
Nc1nn2c(-c3ccco3)cc(-c3ccc(OCc4ccccc4)cc3)nc2c1N=Nc1ccc(F)cc1	Bacillus pumilus	broth microdilution	MTCC 2296			MBC	15.6 µg/mL (≈ 30.9 µM)
COc1cc(/C=N/NC(=S)N/N=C/c2ccc(Br)cc2)ccc1Oc1ccnc2cc(Cl)ccc12	human lysosomal acid alpha-glucosidase	inhibitor		added: pNPG substrate		IC50	8.33 ± 0.23 µg/mL
COc1cc(-c2nc3ccccc3c(=O)n2Nc2ccc([N+](=O)[O-])cc2[N+](=O)[O-])ccc1OCc1cn(CC(=O)Nc2cccc(Cl)c2)nn1	mushroom tyrosinase	inhibitor, colorimetric		added: L-DOPA substrate		IC50	37.2 ± 1.89 µM
O=C(NCc1ccccc1)c1cn(Cc2ccc(C(F)(F)F)cc2)c2ccc(Oc3ccccc3)cc2c1=O	MDA-MB-231/LM2-4, MCF10A	cytotoxicity		72 h	relative to: CC50 MCF10A over CC50 MDA-MB-231/LM2-4	selectivity ratio	1.6
CCOc1c([C@H](C)n2nc(C)c3c(N)ncnc32)cc(Cl)c(F)c1[C@@H]1CNC(=O)C1			patients with DLBCL, plasma	oral, 30 mg, day 15, monotherapy		half-life geometric mean	10.3 ± 1.96 h
O=C(Nc1cc(-c2ccc(Cl)cc2)[nH]n1)C1CCCCC1	Protein kinase C zeta type (PRKCZ, Homo sapiens, UniProt Q05513)	enzyme activity, Dundee kinase panel		10 µM		remaining activity	73%
Cc1ccc(N=Nc2c(N)nn3c(-c4ccco4)cc(-c4ccc(OCc5ccccc5)cc4)nc23)cc1	Enterococcus faecalis	broth microdilution	MTCC 0459			MBC/MIC ratio	2
COc1cc(-c2nc3ccccc3c(=O)n2Nc2ccc([N+](=O)[O-])cc2[N+](=O)[O-])ccc1OCc1cn(CC(=O)Nc2ccc(C)cc2)nn1	mushroom tyrosinase	enzyme activity		40 µM, added: L-DOPA		inhibition	45.2 ± 2.39%
COc1cc(/C=N/NC(=S)N/N=C\c2ccc([N+](=O)[O-])cc2)ccc1Oc1ccnc2cc(Cl)ccc12	human lysosomal acid alpha-glucosidase	inhibitor		added: pNPG substrate		IC50	8.58 ± 0.32 µg/mL

For quick reference, copied from above:
Compound	tested on	test	test system	setting	how to read	measurement	result
COc1cc(/C=N/NC(=S)N/N=C/c2ccc(Br)cc2)ccc1Oc1ccnc2cc(Cl)ccc12	human lysosomal acid alpha-glucosidase	inhibitor		added: pNPG substrate		IC50	8.33 ± 0.23 µg/mL
